Experimental data of several laboratories.
Every numbered part comes from another study and shows a few of its results, in no order. Substitutions count along the parent as printed.

Study 1
Target: RNA binding protein fox-1 homolog 2, RRM domain, GST-SBP tag (RBFOX2, Homo sapiens, UniProt O43251-10, residues 100-194)
Technique: RNA Bind-n-Seq
Form: RNA
Medium: in vitro
Concentration: 365 nM
Notes: natural RNA segment, single round, ends assumed
Relative to: no-protein control
Direction: higher = stronger binding
Measurement: RBNS enrichment (R)
Constant ends, left off below: GGGAGUUCUACAGUCCGACGAUC … UGGAAUUCUCGGGUGCCAA
Residues (chain): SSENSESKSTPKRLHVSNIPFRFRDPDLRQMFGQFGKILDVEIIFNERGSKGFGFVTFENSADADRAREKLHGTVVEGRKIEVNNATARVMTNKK
UUUUGUAACAGUGACCCUGUCUUAAGUCUUUCAGAUCUCUUUGCUUUGAAACUUCGUCGAUUCCAUUGUGAUAAGCGCACAAACAGCACUGUUGGUAACCGGUACUACUU: 0.241
CCAUCUUCCAUGACUGCUUCUAUUCCUGCCUUCCAUGGCAGUGUCCACAGGAGAUAGGCAAGAAGAUUGGAGCAGCUUUCUCACAGGUCUGCAAUUUGGAUUUUCUCCAA: 0.311
UCUUCCUCAUUCAUUCUUUAUCAUCCUGUGUUCUGUUUAGUUGCAACAAUCUCUUGUGACUAAUGUCACUCAAAGCAUCUUGUAAAUCCUAGGGCUUCCUGGAAGUUAGU: 1.45
AGUCCUGGCCCUGGCCCUUACUAUUAGGAAAAUAAACAGACAAAAACAAGUAAAUAUAUAUGGUCAUAUACAUAUUGUAUAUAUAUUCAUAUACAAACAUGUAUGUAUAC: 0.526
CGUUCUCCUGCUUGUACUAAGCCAGGAGGCUUUAAGCUCCAGCUUUAAGGGUUGUGAGCCCCUUGGGGGUUCAGGGAACUGCUUGCCCAGGGUGCAGUGUGAGUGUGAUG: 0.652
CAGCUAUGAAAGCUUUGCUUACUGGGAUGGAUGGGGGCAGACAAGAGGACAGUAGGGAAUCUGCCGAGGUGCCCGCACGUACUUUAGUGAGUUUAGCCAAACUAACAGCA: 1.37
AAAGAGCGGCCCACAGUCAUGCUACUCCCAUUUAGGAACAUGGGCUUACCAGCUCAAGACUUAUCUAACCCUAAAAGCAGGGAAGAACCCGGUGCGGCCUCAGCAGCUUC: 0.253
GGGGCGGAUUGAGAAGAAUCUUCCGUAGCCUGAGCUGUCCCUCCUGUUUUGACGGCACAUGUGCCAGUCAAGGGACAUGGGACAGUCGCGCCACUUUGCAUUCCCACGGG: 0.305
CCAGAACAGUAAGUACCACUGGACCCCGAAGCUGUGAGUGCUAUCUUGGGCAGACCAAACUCAGGCCUGAUGCAACCAAGUUGCCCCUGGGUCCUAGCGACACCUCCUCA: 0.23
CACAGACAUGGUGUCUGCAGUUUCCCAGCUGUCCGACUCCCCGGACACCACAGAGGAAGCCACCCCAGUUCAGGAGGUAGAGGGUGGCAUGCUAGAUACGGAAGAACAGG: 0.803
AAUUUUCCAUAAGCUAUUUUGGUUUAGUGCAAAGUAUAAAAUUAUAUUUGGGGGGGAAUAAGAUUAUAUGGACUUUCUUGCAAGCAACAAGCUAUUUUUUAAAAAAAACU: 1.07
UCAGGGUGUCAAGCUGUUUUCAUUUUUUAGGCAAAUAGAACAAAAGCCAUUUUGGUUCAUCCUGAUCACUUGAAUGAUAGACUCAAUGCCCUGUGCCUGGCAGGGAGCGC: 0.306

Study 2
Target: CCNA2, cyclin fold, Cln2 fusion (human)
Technique: yeast growth competition, sequencing
Medium: yeast
Notes: strong parent motif
Relative to: not given
Direction: higher = stronger binding
Measurement: normalised enrichment score
Starting sequence: RBL2 docking peptide (human); STTRRRLFVENDS; partner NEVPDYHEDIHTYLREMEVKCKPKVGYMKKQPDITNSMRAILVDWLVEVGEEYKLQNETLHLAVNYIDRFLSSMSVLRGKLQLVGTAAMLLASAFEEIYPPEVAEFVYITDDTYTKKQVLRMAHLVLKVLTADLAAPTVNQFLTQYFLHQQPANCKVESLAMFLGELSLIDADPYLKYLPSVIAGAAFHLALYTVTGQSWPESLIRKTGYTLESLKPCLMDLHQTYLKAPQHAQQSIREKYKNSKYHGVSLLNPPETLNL
L7H: 0.701
S13D: 6.31
R4D: -0.903
R4Y: 2.47
V9G: 5.5
T3M: 3.5
V9W: 6.52
L7F: 1.61
V9M: 6.65
R4I: 2.18
S13Q: 4.66
F8T: 0.307
V9H: 5.97
V9I: 6.1
N11T: 5.82
F8I: 1.93
L7A: 0.437
S1M: 5.37
R6W: 1.11
V9C: 6.43
R6Y: 0.736
L7E: 0.136
N11G: 5.85
T2A: 5.7
S1R: 6.56

Study 3
Target: TAR DNA-binding protein 43, full length, His tag (TARDBP, Homo sapiens, UniProt Q13148, residues 1-414)
Technique: RNA Bind-n-Seq
Form: RNA
Medium: in vitro
Concentration: 20 nM
Notes: 6-mer, flanks averaged, single round
Together with: 150 mM KCl
Relative to: input library
Direction: higher = stronger binding
Measurement: 6-mer enrichment (R)
AACCAA: 0.652
CUACUU: 0.574
ACUAAG: 0.718
UUUGCU: 0.66
AGACGC: 0.851
UUAAUG: 0.659
AGACUC: 0.614
GCGUGA: 1.56
GAGAAC: 0.917
GACAUG: 0.947
CUCGAA: 0.608
GGAAUA: 0.926
ACUGCU: 0.628
CCUGCU: 0.625
AGUGCU: 0.776
UUCGGA: 0.762
CAAUAA: 1.01
UGUGGG: 3.66
ACUCCU: 0.605
UAGGAC: 0.814
UCGGUU: 0.662
AGUAUG: 1.17
ACAUUA: 0.583

Study 4
Target: Interferon regulatory factor 5, full length, phosphomimetic (IRF5, Homo sapiens, UniProt Q13568-2, residues 1-514, S451D/S453D/S456D/S462D)
Technique: protein-binding microarray
Form: double-stranded DNA, one strand shown
Medium: in vitro
Concentration: 940 nM top
Notes: 60-bp whole probe
Together with: salmon DNA 0.4 mg/ml
Relative to: random background probes
Direction: higher = stronger binding
Measurement: fitted relative affinity
Constant ends, left off below: GCCTAGCAC … GTCTTGATTCGCTTGACGCTGCTG
GACGGTTTCGGTCTCGGGAAGTGCTAG: 13.7 z-score
GACCGTTTCGACTTTCGGGACGTGCTA: 3.67 z-score
GACGGAGTGGGTATCGGGACGTGCTAG: 0.872 z-score
GACGGACTGTACTATCGGGACGTGCTA: -0.328 z-score
GACGATATCGACTATCGGGACGTGCTA: 0.168 z-score
TCAGTTTTAAATAGGGCACTGTGCTAG: 0.0776 z-score
TAGATATTATATCTGTGTTAGTGCTAG: -0.271 z-score
TCAAAGCTTCCTCTCTGACTGTGCTAG: -0.211 z-score
TTAGGACTGGGCTTCGGTTAGTGCTAG: -0.45 z-score
TCACCTCTCTGTCCCCCACTGTGCTAG: 1.26 z-score
TTAGATTCCTGTTTCGATTAGTGCTAG: 4.42 z-score
GACGGTTTCGACACTGGGAACGTGCTA: 6.96 z-score
TCATCTTTTTTTCTTTTACTGTGCTAG: 2.2 z-score
TTAGATATCAGGTTCGATTAGTGCTAG: 0.0718 z-score
TTAGGTATCCTTTTCCTTTGGTGCTAG: 0.296 z-score
TTAGGTGTCGGGTTTCGGTTAGTGCTA: 5.41 z-score
GGTATTCGGAACTTTTAGCTGTGCTAG: 0.151 z-score
AATGATTACATATATGTTGGTGTGCTA: 0.212 z-score
GACGATATCGCGTTTCGAGACGTGCTA: 0.127 z-score
TTAGGCTTCGACTTTCGGTTAGTGCTA: 2.05 z-score
TCATGTATATACTATATGACTGTGCTA: -0.203 z-score
TTTTCTTTTCATTACTGCATGTGCTAG: 1.99 z-score
CTGGCCTGGGGTCTGCAGAGGTGCTAG: -0.792 z-score
TCAAATTTCTTTCTAATACTGTGCTAG: 1.43 z-score
CACGGTTTCGACACTGGGGACGTGCTA: 6.84 z-score

Study 5
Target: Sal-like protein 4, full length isoform A (SALL4, Homo sapiens, UniProt Q9UJQ4, residues 1-1053)
Sequence of UniProt Q9UJQ4 (whole entry, looked up): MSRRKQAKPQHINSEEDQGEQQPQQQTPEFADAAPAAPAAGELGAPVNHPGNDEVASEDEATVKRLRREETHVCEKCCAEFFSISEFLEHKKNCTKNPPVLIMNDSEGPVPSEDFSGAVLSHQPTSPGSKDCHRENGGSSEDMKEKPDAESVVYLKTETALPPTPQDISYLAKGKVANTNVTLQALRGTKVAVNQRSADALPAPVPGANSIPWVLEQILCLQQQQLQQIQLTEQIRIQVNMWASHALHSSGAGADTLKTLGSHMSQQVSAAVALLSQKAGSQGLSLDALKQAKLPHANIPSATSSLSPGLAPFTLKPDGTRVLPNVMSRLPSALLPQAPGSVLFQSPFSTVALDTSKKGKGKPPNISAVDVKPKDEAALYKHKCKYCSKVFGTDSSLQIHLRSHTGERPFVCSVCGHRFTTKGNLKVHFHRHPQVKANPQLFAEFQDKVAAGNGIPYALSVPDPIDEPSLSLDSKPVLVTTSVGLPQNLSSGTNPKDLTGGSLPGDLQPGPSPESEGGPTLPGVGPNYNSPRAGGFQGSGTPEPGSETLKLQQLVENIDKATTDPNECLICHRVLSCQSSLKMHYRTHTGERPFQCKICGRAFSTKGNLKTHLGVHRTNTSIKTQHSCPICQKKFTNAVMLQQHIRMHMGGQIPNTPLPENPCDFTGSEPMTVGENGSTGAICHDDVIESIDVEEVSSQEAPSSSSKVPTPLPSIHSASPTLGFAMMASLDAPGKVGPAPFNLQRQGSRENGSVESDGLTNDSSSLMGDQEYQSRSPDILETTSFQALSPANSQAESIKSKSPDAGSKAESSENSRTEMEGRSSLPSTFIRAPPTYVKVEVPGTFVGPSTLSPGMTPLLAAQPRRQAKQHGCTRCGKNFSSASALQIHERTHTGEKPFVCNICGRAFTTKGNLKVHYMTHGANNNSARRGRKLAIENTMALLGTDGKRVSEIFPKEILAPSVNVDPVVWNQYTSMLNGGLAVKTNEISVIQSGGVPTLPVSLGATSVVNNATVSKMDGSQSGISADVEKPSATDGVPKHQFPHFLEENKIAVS
Technique: universal PBM
Form: double-stranded DNA, one strand shown
Medium: in vitro
Concentration: 600 nM
Notes: 8-mer, flanks averaged, mean of replicates
Direction: higher = stronger binding
Measurement: E-score
AGCGCAGG: -0.333
CCAAAATA: 0.348
CCGCGACG: -0.319
ACATTCTA: 0.158
CCATAGCA: 0.106
CAGAAGGC: -0.294
ACGGGTGG: -0.327
AGGCCCCG: -0.376
CCGATTCA: 0.0399
CCTATCGA: 0.0938
AATGATCT: 0.203
GGGACTGA: -0.234
CCAGCTGC: -0.386
AGCCAATG: -0.114
CGCGCGGA: -0.341
AATAGCAG: 0.0168
ACGGATTC: -0.0328
ACCAAACA: 0.252
AAGCTATC: 0.133
AAACAGTC: 0.0087
ATCGCTGC: -0.118
CAATCTTC: 0.0577
AGTAGGGC: -0.0725
CTGTAAAC: 0.277
ACCTTTCA: -0.0614

Study 6
Target: Histone acetyltransferase KAT6A, winged helix 2, GST fusion (KAT6A, Homo sapiens, UniProt Q92794, residues 85-181)
Technique: protein binding microarray
Form: double-stranded DNA, one strand shown
Medium: in vitro
Concentration: not given
Notes: 8-mer, flanks averaged, mean of 2 arrays, mostly near background
Relative to: not given
Direction: higher = stronger binding
Measurement: E-score
Target sequence (chain): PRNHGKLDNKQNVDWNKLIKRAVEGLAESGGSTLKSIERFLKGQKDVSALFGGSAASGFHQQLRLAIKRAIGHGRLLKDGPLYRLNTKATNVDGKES
GAGTTCAA: 0.059
GTTACTCA: 0.0508
CAGTCGAA: -0.092
AGAGGGTG: 0.109
CAGCGCAA: 0.0611
CACACCCC: -0.152
CTTGTGCA: 0.0534
CTGCACGC: -0.0416
CAGTATGC: -0.0182
ATACGTTA: -0.0673
CATCGGCC: 0.0229
CTCAAATC: -0.279
CTACGTTA: -0.0264
CAAAGGAG: 0.0259
ATACTCCC: 0.023
TGCCTACA: 0.0171
GAAGGCAC: 0.21
GCCCCTAC: -0.0406
AAGGGGGC: 0.0858
CGGTGCGA: 0.252
GGCTAATA: 0.0858
CACCTTCC: 0.0442
GCTCGCAA: 0.108
GCAGTGTA: -0.00369
CGGGCAAG: 0.106

For quick reference, copied from above (study 4):
TTAGATTCCTGTTTCGATTAGTGCTAG: 4.42 z-score
TCACCTCTCTGTCCCCCACTGTGCTAG: 1.26 z-score
TCATCTTTTTTTCTTTTACTGTGCTAG: 2.2 z-score
TTAGATATCAGGTTCGATTAGTGCTAG: 0.0718 z-score
TTAGGACTGGGCTTCGGTTAGTGCTAG: -0.45 z-score
AATGATTACATATATGTTGGTGTGCTA: 0.212 z-score
TCAAATTTCTTTCTAATACTGTGCTAG: 1.43 z-score
TTAGGTGTCGGGTTTCGGTTAGTGCTA: 5.41 z-score
TCAAAGCTTCCTCTCTGACTGTGCTAG: -0.211 z-score
GACGGAGTGGGTATCGGGACGTGCTAG: 0.872 z-score
GACGATATCGCGTTTCGAGACGTGCTA: 0.127 z-score
TAGATATTATATCTGTGTTAGTGCTAG: -0.271 z-score
GACGGTTTCGGTCTCGGGAAGTGCTAG: 13.7 z-score
TTAGGCTTCGACTTTCGGTTAGTGCTA: 2.05 z-score
TTTTCTTTTCATTACTGCATGTGCTAG: 1.99 z-score
TCATGTATATACTATATGACTGTGCTA: -0.203 z-score
GACGATATCGACTATCGGGACGTGCTA: 0.168 z-score
TTAGGTATCCTTTTCCTTTGGTGCTAG: 0.296 z-score
GACGGACTGTACTATCGGGACGTGCTA: -0.328 z-score
